Measured values from different studies.
Each numbered part is a random draw from the data of one study; scales do not carry over between parts.

Block 1
Target: RING finger protein unkempt homolog, zinc fingers 1-6, GST-SBP tag (UNK, Homo sapiens, UniProt Q9C0B0, residues 30-357)
Method: RNA Bind-n-Seq
Molecule type: RNA
Matrix: in vitro
Concentration: not given
Notes: RNA with constant flanks, ends assumed
Baseline: input RNA pool
Direction: higher = stronger binding
Endpoint: bound/input enrichment
Residues (chain): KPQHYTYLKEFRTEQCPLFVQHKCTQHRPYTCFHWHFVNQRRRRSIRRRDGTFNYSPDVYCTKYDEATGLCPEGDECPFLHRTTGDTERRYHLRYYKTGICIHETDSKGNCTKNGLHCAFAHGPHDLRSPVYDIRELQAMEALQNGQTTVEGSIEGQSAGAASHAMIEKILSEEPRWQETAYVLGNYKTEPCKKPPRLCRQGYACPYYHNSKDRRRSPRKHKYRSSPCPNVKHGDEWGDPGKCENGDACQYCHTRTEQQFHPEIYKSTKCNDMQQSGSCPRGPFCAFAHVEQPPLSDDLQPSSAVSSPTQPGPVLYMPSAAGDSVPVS
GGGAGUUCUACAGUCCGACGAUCGUGAAGACAUCACUUCCCCUCGGAGUCCCCUGAGUAUUUACAAGCCUCAGCAGGGCAGCACCGCUAUGUUCUGUUUGCCGUUUGUUGGUUUGCUUCUGUAUAGGUCUCUUUCCUUCCUCCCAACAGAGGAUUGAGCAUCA: 0.324 ratio
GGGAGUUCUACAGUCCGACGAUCAAUGUAGUGUUUUUCCUUUAUAACAUACUUCAGUGACUAAAACUGCUGGCAGCAGUUAAGUCCGUGGGCUUUCUGACUGCAGAUAGGAUUAUUCAUUAAAAAUGUCUGUGUGAUGCUGUACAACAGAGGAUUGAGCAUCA: 2.23 ratio
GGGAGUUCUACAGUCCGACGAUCUCAAUAACCUUUUCAGAUGAAAACGAUGAUCAGGAUUUUGAAUUAUGGGAUGAUGCCGGAUUAAACAUUCCAAAACCUCCAGACUUAUUGCAACUCUACCGGGAUUUUGGAAAUCAUCAACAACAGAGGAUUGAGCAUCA: 0.183 ratio
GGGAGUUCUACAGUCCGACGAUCUUUAUGACAUGUCCCUUUAUAUUGAAUGCUGUCACAAAGAAUUUGGGAUUAUAUUAUGACAACCGAAUUCGCAUGUACAGUGAACGAAGAAUCACUGUUCUCUACAGCUUAGUUCAAGGACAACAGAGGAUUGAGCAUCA: 0.155 ratio
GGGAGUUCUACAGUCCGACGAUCGCUGAGCCUCAGCUGUAUGGUAAUGCCACCAGUGACCAUCCCAACAAUCAAGAUCAAAGCCGCAGUCUUCCUGAAGAAUGUGUACCUUCAGAUGAAAGUACUCCUCCGAGUAUUAAAAAACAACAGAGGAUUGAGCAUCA: 0.156 ratio
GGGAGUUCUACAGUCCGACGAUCGACGUUGAGAGGAUUGUUUAUUUGAUUUUUAUCCUCAUCCCAGCAGGCCUGGCUUUGUGGUCCGUUGGGUACAUCACAAAAAUAAGUUAAAAAGAAAUAUUUGUGCCUUGGGGAGAAGAACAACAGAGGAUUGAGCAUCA: 0.268 ratio
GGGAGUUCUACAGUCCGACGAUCUUUUCUAGGAUGUCUUCUGAGAUUGGAAGGGAAAAGAGUCAGGACUGGGGCUCUGCUGGACCCGGAGGAGUAUUUAAGGUGGAGUGGAUACGAAAAGAAAGCCUUCCCUUUCAAUUUGCACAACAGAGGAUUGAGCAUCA: 0.404 ratio
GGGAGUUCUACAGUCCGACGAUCGAGGUUGUUAAGGACAAAGCAGGACCUCAUAAGGAAAUCUAUCCCUAUGUCAUCCAGGAACUCCGACCAACUUUAAAUGAAUUGGGAAUCUCCACUCCAGAGGAGCUGGGCCUUGACAAACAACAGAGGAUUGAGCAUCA: 0.15 ratio
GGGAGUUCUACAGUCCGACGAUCGUUUUUUGUUGUUGUUGUUGUUGUUUUUUUUUUUUGAGGUGGGGAAUUUCUGUUUAUUUCAUUUUGCCGAGCUGGACAAUUGAGUCCAGGGCCUCUCAAAUGCUAGGCAAAACUCUGUCACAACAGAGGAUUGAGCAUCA: 0.777 ratio
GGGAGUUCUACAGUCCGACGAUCGUCUGUGGCCGCAGUGACACCAUCGACACCGUCUCUGUGCCGUAUGUCUUCCGGUACUUUGCCGCUGAGCUGGCAGCCAUGAACAUCAAAGUGAAACUGGAUGUCAUCUGACUUGAUCCCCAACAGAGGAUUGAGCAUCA: 0.0761 ratio
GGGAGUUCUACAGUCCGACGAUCACCUCCCAAGUCCUGUAUGAGUGGGAACAGGGAUUUUCUCAGUCCUUCACUCAAGAACAAGCCGCUGAUAUUGAUGGACAGUAUGCAAUGACUCGAGCUCAGAGGGUACGAGCUGCUAUGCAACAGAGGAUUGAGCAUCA: 0.164 ratio

Block 2
Target: Fragile X messenger ribonucleoprotein 1, C-terminal low-complexity region (Fmr1, Mus musculus, UniProt P35922)
Method: RNA Bind-n-Seq
Molecule type: RNA
Matrix: in vitro
Concentration: 200 nM
Notes: whole 134-nt RNA, ends assumed
Together with: 150 mM LiCl
Baseline: input library
Direction: higher = stronger binding
Endpoint: log2 enrichment
All molecules: 7-deaza-guanosine replaces G
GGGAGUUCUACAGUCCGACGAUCACCAUGCAGGUGGGCAUCUAAAGGAAGUGGGGCAAGGGGGGGAUAGGGAGGGGGGUAACACUUUGGGAACAGGUGGUCCCAGGUCGUUUCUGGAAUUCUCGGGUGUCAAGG: 1.47
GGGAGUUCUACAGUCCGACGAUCCUGUGCUACACAUCGUAUGUACCGAAUCGGGGUUUUUUUGGGGUUUUUUUGGGGUUUGGGGAAAGUAUUAUGUUACGCCGUUCGGAUCUGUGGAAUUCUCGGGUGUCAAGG: 1.34
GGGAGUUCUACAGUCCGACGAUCCAAGUCCUGUGCUACACAUCGUAUGUACCGAAUCGGUUUUUUUGGAAAGGAAAGGAAAGUAUUAUGUUACGCCGUUCGGAUCUGCACUUCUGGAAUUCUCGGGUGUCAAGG: -1.45
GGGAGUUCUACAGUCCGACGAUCACCAUGCAGGUGGGCAUCUUUGGGAAGUGGGGCAAAGGGGGGAUAGGGAGGGGGGUAACACUUUGGGAACAGGUGGUCCCAGGUCGUUUCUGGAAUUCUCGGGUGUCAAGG: 1.26
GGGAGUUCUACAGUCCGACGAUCGCAGGAAGUAAAAACAAAUGGAAAUGCUUCGGAUAGUGGCAGGGGUGGGGGUUGCUAAGGAAAGGGUGGGAAAAGAGUGGGUAAAGAGUUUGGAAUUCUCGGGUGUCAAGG: 1.53
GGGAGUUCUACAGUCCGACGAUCCAAGUCCUGUGCUACACAUCGUAUGUACCGAAUCGGGAAAAAGGGAGGGUUUGGGAAAGUAUUAUGUUACGCCGUUCGGAUCUGCACUUCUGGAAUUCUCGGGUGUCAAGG: -1.21
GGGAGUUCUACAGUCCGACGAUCCACAGGCAACACGCACCCACACAGACACAGAGGGAAGGGGUUGGGAUGGGGACAGGGUGCACAGCAGGGCGGGGUAGGACCCCAGCCCCUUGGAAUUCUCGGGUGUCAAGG: 0.784
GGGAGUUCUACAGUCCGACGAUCCACAGACAACACGCACCCACACAGACACAGAGGGAAGGGGUUGGGAUGGGGACAGGGUGCACAGCAGGGCGGGGUAGGACCCCAGCACCUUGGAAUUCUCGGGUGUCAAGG: -1.01
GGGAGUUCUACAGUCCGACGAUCCCUGUGCUACACAUCGUAUGUACCGAAUCGGGGAAAAAGGGGUUUUUGGGGAAAAAGGGGAAAGUAUUAUGUUACGCCGUUCGGAUCUGCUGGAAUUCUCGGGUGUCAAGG: -0.409
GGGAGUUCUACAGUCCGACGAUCCAAGUCCUGUGCUACACAUCGUAUGUACCGAAUCGGUUUUUUUGGUUUUUGGUGGAAAGUAUUAUGUUACGCCGUUCGGAUCUGCACUUCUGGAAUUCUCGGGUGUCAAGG: -1.56
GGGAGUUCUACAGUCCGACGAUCUAACUUUAGAGGAGGAUCCGAUGGAUAUGGCAGUGGACGUGGAUUUGGGGAUGGCUAUAAUGGGUAUGGAGGAGGACCUGGAGGUGGCAAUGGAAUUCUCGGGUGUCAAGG: 0.435

Block 3
Target: Sal-like protein 4, full length isoform A (SALL4, Homo sapiens, UniProt Q9UJQ4, residues 1-1053)
UniProt Q9UJQ4, sequence (whole entry, looked up): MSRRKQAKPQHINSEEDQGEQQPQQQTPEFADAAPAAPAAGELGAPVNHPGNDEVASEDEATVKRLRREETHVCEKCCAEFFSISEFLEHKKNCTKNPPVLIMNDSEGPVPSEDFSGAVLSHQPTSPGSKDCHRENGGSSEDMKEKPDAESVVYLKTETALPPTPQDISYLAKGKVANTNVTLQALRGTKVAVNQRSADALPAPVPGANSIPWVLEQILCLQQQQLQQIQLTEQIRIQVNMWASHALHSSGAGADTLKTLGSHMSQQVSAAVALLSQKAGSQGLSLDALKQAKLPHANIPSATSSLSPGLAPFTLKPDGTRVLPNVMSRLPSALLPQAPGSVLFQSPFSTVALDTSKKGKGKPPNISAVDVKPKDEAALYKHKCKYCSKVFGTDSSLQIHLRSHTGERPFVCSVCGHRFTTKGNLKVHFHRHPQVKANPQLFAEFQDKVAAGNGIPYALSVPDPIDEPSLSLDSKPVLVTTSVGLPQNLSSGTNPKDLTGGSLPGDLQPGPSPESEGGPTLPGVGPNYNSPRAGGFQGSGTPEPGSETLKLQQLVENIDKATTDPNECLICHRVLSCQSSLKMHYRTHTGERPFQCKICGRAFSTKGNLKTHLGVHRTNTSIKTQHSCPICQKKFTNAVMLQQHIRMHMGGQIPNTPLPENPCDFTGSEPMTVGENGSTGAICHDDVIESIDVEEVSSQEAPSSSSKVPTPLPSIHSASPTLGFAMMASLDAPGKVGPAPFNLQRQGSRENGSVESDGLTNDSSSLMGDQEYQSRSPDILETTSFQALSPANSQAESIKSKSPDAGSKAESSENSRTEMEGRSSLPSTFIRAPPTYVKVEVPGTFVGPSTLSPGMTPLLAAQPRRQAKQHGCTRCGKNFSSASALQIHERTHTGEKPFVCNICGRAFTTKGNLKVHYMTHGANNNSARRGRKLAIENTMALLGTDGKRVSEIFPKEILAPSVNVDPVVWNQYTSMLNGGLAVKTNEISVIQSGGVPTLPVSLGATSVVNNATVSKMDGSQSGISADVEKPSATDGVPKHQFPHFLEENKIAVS
Method: universal PBM
Molecule type: double-stranded DNA, one strand shown
Matrix: in vitro
Concentration: 600 nM
Notes: 8-mer, flanks averaged, mean of replicates
Direction: higher = stronger binding
Endpoint: E-score
GTTTTGCA: 0.216
ACAGGGTG: -0.198
ACATCACA: 0.225
CCGCCAGC: -0.341
AGTCCTGC: -0.212
ACTCAGCG: -0.0742
GAGACAGC: -0.138
CCCGACTC: -0.25
GACACTCC: -0.156
CTTGCTCA: -0.237
ACGAAGAT: 0.134
CATCACCG: -0.14
TAAAGAGA: 0.0761
AGATGCCT: 0.0321
ATGCATTC: 0.188
AATCCAGA: 0.265
CCAGGGGA: -0.261
AATGACGG: -0.0503
CCGTGGCC: -0.368
GAAGCCGC: -0.135
TATTGACA: 0.263

Block 4
Substance: PhoQ, residues 284 288 289 292 302 303 MLMVEA
Method: Sort-seq
Refers to: YFP reporter
Matrix: E. coli
Notes: PhoQ-PhoP variant library
Together with: 10 µM Mg2+
Baseline: high Mg2+ state
Direction: higher = stronger signaling
Endpoint: fold induction
PhoP, residues 12 14 15 18 19 TQCLL (Escherichia coli, UniProt P23836): 12.9
PhoP, residues 12 14 15 18 19 ICWRQ (Escherichia coli, UniProt P23836): 11.5
PhoP, residues 12 14 15 18 19 VHTVL (Escherichia coli, UniProt P23836): 9.99

Some of these lines once more (block 3):
CCGCCAGC: -0.341
GTTTTGCA: 0.216
CCCGACTC: -0.25
ACGAAGAT: 0.134
CCGTGGCC: -0.368
CTTGCTCA: -0.237
CATCACCG: -0.14
